Results collected from several papers.
Parts stem from different laboratories: compare values within a part only. Changes are numbered by the printed parent chain.
Sequence of UniProt Q9NR20 (whole entry, looked up): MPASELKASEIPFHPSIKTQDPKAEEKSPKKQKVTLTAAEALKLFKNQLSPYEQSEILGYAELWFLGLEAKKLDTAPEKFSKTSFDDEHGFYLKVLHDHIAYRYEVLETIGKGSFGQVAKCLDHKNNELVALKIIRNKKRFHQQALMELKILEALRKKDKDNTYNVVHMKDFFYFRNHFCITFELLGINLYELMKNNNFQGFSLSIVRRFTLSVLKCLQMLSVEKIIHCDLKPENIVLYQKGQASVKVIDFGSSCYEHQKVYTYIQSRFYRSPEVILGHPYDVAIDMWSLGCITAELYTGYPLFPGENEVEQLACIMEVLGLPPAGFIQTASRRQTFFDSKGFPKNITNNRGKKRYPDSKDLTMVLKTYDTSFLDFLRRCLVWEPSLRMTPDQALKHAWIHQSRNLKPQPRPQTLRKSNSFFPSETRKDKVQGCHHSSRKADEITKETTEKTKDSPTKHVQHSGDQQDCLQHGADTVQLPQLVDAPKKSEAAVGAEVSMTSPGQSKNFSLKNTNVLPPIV
Sequence of UniProt P35372 (whole entry, looked up): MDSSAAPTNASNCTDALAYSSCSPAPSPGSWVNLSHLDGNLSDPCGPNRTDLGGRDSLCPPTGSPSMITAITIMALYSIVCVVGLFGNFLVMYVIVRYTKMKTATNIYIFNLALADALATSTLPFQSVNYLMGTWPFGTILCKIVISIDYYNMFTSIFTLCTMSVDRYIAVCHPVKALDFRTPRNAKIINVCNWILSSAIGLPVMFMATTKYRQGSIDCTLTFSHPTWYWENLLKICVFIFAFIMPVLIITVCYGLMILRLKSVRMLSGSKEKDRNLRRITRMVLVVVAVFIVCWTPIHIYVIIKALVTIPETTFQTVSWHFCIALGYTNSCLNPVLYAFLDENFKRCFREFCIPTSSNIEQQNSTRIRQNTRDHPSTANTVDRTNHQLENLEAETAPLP

Block 1
Structure (SMILES): O=C(NCc1ncc(C(F)(F)F)cc1Cl)c1ccc2c(c1)C1(CCS(=O)(=O)CC1)[C@@H](C1CC1)N2S(=O)(=O)c1ccc(F)cc1
Concentration: 10 µM
Quantity: inhibition
Mu-type opioid receptor (OPRM1, Homo sapiens, UniProt P35372); ligand displacement: 13.1%
Sodium-dependent serotonin transporter (SLC6A4, Homo sapiens, UniProt P31645); cell-free assay: -4.88%
D(1B) dopamine receptor (DRD5, Homo sapiens, UniProt P21918); ligand displacement: -0.49%

Block 2
Target: UDP-N-acetylglucosamine--peptide N-acetylglucosaminyltransferase 110 kDa subunit (OGT, Homo sapiens, UniProt O15294)
Sequence of UniProt O15294 (whole entry, looked up): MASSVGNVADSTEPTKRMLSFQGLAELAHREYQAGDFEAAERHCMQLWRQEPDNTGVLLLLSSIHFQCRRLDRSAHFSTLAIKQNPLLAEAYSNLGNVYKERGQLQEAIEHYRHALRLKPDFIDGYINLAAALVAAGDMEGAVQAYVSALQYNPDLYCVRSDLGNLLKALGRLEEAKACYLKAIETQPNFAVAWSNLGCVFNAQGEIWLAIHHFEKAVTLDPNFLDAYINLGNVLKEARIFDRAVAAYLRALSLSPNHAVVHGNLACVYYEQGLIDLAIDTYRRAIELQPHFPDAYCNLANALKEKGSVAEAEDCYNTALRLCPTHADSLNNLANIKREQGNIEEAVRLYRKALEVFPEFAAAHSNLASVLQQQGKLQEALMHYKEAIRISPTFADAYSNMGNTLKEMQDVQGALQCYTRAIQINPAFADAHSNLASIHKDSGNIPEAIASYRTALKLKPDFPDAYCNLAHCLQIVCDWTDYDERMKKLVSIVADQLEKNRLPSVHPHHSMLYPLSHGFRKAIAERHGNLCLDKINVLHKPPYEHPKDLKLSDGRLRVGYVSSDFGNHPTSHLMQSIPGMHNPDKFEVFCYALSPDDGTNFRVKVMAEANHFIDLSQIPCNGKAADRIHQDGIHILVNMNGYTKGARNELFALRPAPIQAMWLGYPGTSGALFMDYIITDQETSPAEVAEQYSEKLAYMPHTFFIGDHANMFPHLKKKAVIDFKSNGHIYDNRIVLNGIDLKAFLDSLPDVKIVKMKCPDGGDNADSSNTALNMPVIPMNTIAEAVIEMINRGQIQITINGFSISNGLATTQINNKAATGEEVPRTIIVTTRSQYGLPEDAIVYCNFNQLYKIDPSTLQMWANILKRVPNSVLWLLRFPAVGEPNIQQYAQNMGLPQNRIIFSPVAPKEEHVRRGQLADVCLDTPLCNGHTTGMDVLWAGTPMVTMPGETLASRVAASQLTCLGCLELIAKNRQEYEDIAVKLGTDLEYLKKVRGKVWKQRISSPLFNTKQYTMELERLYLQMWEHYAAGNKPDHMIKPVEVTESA
Effect on: binding
Technique: phage display NGS
Molecule type: peptide
Concentration: concentration not given
Added: OGT 1 µg
Reference: input library
Quantity: enrichment fold change
TAPFYPPAYDIQVFK: 0.434
TAPFYPPAYFIQVFK: 3.26
TAPFYPPAYAIQVFK: 1.57

Block 3
Target: CCND3, cyclin fold, Cln2 fusion (human)
Technique: yeast growth competition, sequencing
Sample: yeast
Notes: weak parent motif
Reference: not given
Reading: higher = stronger binding
Quantity: normalised enrichment score
Parent: viral docking peptide; KGVKRKLFAEDSS; partner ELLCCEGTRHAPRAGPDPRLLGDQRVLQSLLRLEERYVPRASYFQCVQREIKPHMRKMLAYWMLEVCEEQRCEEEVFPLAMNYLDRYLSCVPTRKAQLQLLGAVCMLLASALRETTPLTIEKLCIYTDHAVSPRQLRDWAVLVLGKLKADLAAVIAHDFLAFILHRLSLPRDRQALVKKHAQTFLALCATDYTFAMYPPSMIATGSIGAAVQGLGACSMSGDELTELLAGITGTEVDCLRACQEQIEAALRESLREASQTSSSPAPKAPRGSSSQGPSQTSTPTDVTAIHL
KGVKRKLFAEDDS [S12D]: -0.184
KGVKRELFAEDSS [K6E]: 0.121
KGVKRKLFAESSS [D11S]: 0.297
KEVKRKLFAEDSS [G2E]: 0.186
KGVKGKLFAEDSS [R5G]: -0.511
KGVKRKQFAEDSS [L7Q]: 0.372
KTVKRKLFAEDSS [G2T]: 0.122
KGVRRKLFAEDSS [K4R]: 0.545

Other studies, line by line
O=C1CCC(N2Cc3c(ccc4c3OCC43CCN(Cc4ccccc4)CC3)C2=O)C(=O)N1 (centres unmarked) — volume of distribution (Vz) (ICR mouse, male, plasma; intravenous, 1.0 mg/kg): 5.77 L/kg
COc1ccc2c(c1)/C(=C/c1cnc[nH]1)C(=O)N2 — remaining activity (Dual specificity tyrosine-phosphorylation-regulated kinase 4 (DYRK4, Homo sapiens, UniProt Q9NR20); enzyme activity, inhibitor; 0.5 µM; reference: control): 98.5%
CCOc1ccc(N2C(=O)N=C(O)C3(Cc4c(ccc5ccccc45)N(C)C3)C2=O)cc1 (centres unmarked) — remaining compound (human, microsomes or S9; 2 µM, 0.5 h): 44.1%

Repeated from above (block 3):
KGVKRKQFAEDSS [L7Q]: 0.372
KTVKRKLFAEDSS [G2T]: 0.122
